Published values gathered from unrelated publications.
Compare with care: the assays were run in different laboratories.
Technique: steady-state kinetics
B1: enzyme (Populus trichocarpa, UniProt A0A2K1ZZ60); chain ITRQYTFNITHKNFTRLCHTRSLVTVNGQFPGPRLVAREGDQVLVKVVNHVAENITIHWHGVRQLTSGWADGPAYVTQCPIQTGQAYTYNFTITGQRGTLLWHAHISWLRSSLYGPIIILPKLNESYPFKKPYKEIPILFGEWFNVDPEAVIAQALQTGAGPNVSDAYTINGLPGPLYNCSAKDTYKLKVKPGKTYLLRLINAALNDELFFSIANHTLTVVEADAVYVKPFEADTLLISPGQTTNVLLKTKPHLPNATFYMFAGPYFSGMGSFDNSTTAGVLVYKHPSSNNHLKKLPTLKPTLPPINATGFVANFTKKFRSLANAKFPANVPQTVDRKFFFTVGLGTNPCPKNTTCQGPNNNTKFAASINNVSFVLPSVALLQSYFFGQSNGVFTSDFPQNPTIPFNYTGTPPNNTMVSNGTKAVVLTFNTSVELVMQGTSIVAAESHPLHLHGFNFFVVGQGFGNYDPNKDPSNFNLVDPMERNTAGVPAGGWIAIRFLADNPGVWFMHCHLDVHTSWGLRMAWIVLDGPQPNQKIPPPPSDLPKC
B2: enzyme S252E (Schizosaccharomyces pombe, UniProt P78804); chain MSTPYEPEFQQAYKEIVGSIESSKLFEVHPELKRVLPIISIPERVLEFRVTWEDDKGNCRVNTGYRVQFNSALGPYKGGLRFHPSVNLSILKFLGFEQIFKNALTGLPMGGGKGGSDFDPKGKSDNEIRRFSQAFMRQLFRYIGPQTDVPAGDIGVTGFVVMHMFGEYKRLRNEYSGVVTGKHMLTGGSNIRPEATGYGVVYYVKHMIEHRTKGAETLKGKRVAISGSGNVAQYAALKCIQEGAIVKSISDEKGVLIAKTAEGLVPEEIHEIMALKEKRASIADSASLCKKHHYIAGARPWTNVGEIDIALPCATQNEVSGEEAAALIKQGCRYVAEGSNMGSSAEAVEVFEKSRASGEGCWLAPGKAANAGGVAVSGLEMAQNAQFSTWTHAEVDAKLAGIMQNIFEQSTDVASKYCDSGSNNIPSLVDGANIAGFLKVATAMQAVGDWW
B3: enzyme Y136L/Y168I (Bradyrhizobium diazoefficiens, UniProt Q45222); chain MIQTERAVQQVLEWGRSLTGFADEHAVEAVRGGQYILQRIHPSLRGTSARTGRDPQDETLIVTFYRELALLFWLDDCNDLGLISPEQLAAVEQALGQGVPCALPGFEGCAVLRASLATLAYDRRDYAQLLDDTRCLSAALRAGHAQAVAAERWSYAEYLHNGIDSIAIANVFCCLSLLWGLDMATLRARPAFRQVLRLISAIGRLQNDLHGCDKDRSAGEADNAVILLLQRYPAMPVVEFLNDELAGHTRMLHRVMAEERFPAPWGPLIEAMAAIRVQYYRTSTSRYRSDAVRGGQRAPA
B4: ST3GAL1 K315T (Sus scrofa, UniProt Q02745); chain ELSENFKKLMKYPYRPCTCTRCIEEQRVSAWFDERFNRSMQPLLTAKNAHLEEDTYKWWLRLQREKQPNNLNDTIRELFQVVPGNVDPLLEKRLVSCRRCAVVGNSGNLKESYYGPQIDSHDFVLRMNKAPTEGFEADVGSKTTHHFVYPESFRELAQEVSMILVPFKTTDLEWVISATTTGRISHTYVPVPAKIKVKKEKILIYHPAFIKYVFDRWLQGHGRYPSTGILSVIFSLHICDEVDLYGFGADSKGNWHHYWENNPSAGAFRTTGVHDGDFESNVTTILASINKIRIFKGR
B5: enzyme W53Y (Thermoplasma volcanium, UniProt Q978S7); chain MAFHGLVKYSDITVEGYPKIQYHGFIGNNRTAMLVAMNGYIDYGCLPNFNSNAVFSSILDKNKGGYFAIFPSDTTDVYVDQYYKEMTNVLVTEFVKNGKIILRLTDFMPDSEYGKISFPEVHRFVESFSEPIDITIDFKPTFNYGQDKPIIEKDQHGFIFTTDKESIGISSEFPLRKNSDRIFGNVKMEPRSSSWIIALYGIHHLFRTTDYKSYLRLQETTDYWRKWASSSSYAGAYHSMVMRSALALKVLFYEPTGLMVAAPTASLPEAIGGERNWDYRFTWIRDTAYVIEALSSIGYKYEATEFLYDMMDMITRDNRIRTIYSIDDSNDLEERIIDYEGYRGSRPVRIGNKAVDQLQIDQYGSIVRAIHSMAKAGGIVNSYLWDFVEQVMAKIEYLWKYPDSSIWEFRTEPKQYVYSKVMSWAAFDSAISMAKDLGLSAPIKQWKSIQDEIKKEVLEKGFDTDTNSFVQYYGSKNIDAALLRLPILGFIPANDEKFLGTLSRIEKELMVDGYLFKRYREDDGLKGDEGSFLMLTFWYIEDLILMKRLKKAREVLESVLEKANHLGLYSEEIDEKSGDFLGNFPQALSHLGVIRVAPKLEEALLKRTSKINS
B6: efeB (Bacillus subtilis, UniProt P39597); chain IGASGLGGLAPLVQTAAKPSKKDEKEEEQIVPFYGKHQAGITTAHQTYVYFAALDVTAKDKSDIITLFRNWTSLTQMLTSGKKMSAEQRNQYLPPQDTGESADLSPSNLTVTFGFGPGFFEKDGKDRFGLKSKKPKHLAALPAMPNDNLDEKQGGGDICIQVCADDEQVAFHALRNLLNQAVGTCEVRFVNKGFLSGGKNGETPRNLFGFKDGTGNQSTKDDTLMNSIVWIQSGEPDWMTGGTYMAFRKIKMFLEVWDRSSLKDQEDTFGRRKSSGAPFGQKKETDPVKLNQIPSNSHVSLAKSTGKQILRRAFSYTEGLDPKTGYMDAGLLFISFQKNPDNQFIPMLKALSAKDALNEYTQTIGSALYACPGGCKKGEYIAQRLLES
B7: CDA (Homo sapiens, UniProt P32320); chain MAQKRPACTLKPECVQQLLVCSQEAKKSAYCPYSHFPVGAALLTQEGRIFKGCNIENACYPLGICAERTAIQKAVSEGYKDFRAIAIASDMQDDFISPCGACRQVMREFGTNWPVYMTKPDGTYIVMTVQELLPSSFGPEDLQKTQ
B8: UGT1A1 (Homo sapiens, UniProt P22309); chain HAGKILLIPVDGSHWLSMLGAIQQLQQRGHEIVVLAPDASLYIRDGAFYTLKTYPVPFQREDVKESFVSLGHNVFENDSFLQRVIKTYKKIKKDSAMLLSGCSHLLHNKELMASLAESSFDVMLTDPFLPCSPIVAQYLSLPTVFFLHALPCSLEFEATQCPNPFSYVPRPLSSHSDHMTFLQRVKNMLIAFSQNFLCDVVYSPYATLASEFLQREVTVQDLLSSASVWLFRSDFVKDYPRPIMPNMVFVGGINCLHQNPLSQEFEAYINASGEHGIVVFSLGSMVSEIPEKKAMAIADALGKIPQTVLWRYTGTRPSNLANNTILVKWLPQNDLLGHPMTRAFITHAGSHGVYESICNGVPMVMMPLFGDQMDNAKRMETKGAGVTLNVLEMTSEDLENALKAVINDKSYKENIMRLSSLHKDRPVEPLDLAVFWVEFVMRHKGAPHLRPAAHDLTWYQYHSLDVIGFLLAVVLTVAFITFKCCAYGYRKCLGKKGRVKKAHKSKTH
B9: enzyme (Myxococcus xanthus, UniProt Q1D030); chain MAQTQEALIPTKDAFSRKAHVKSLEDYQRLYQRSIQQPEAFWSEMAEQLTWFHKPDAIMDLDAEQVDFSWFGGGKLNAAYNCIDRHATERPGKVAIIWAKNEPGEYESITYRDLQHHVGRVANVLKAHGVRKGDRVCIYLPMVPELAYTMLACARIGAVHSVVFAGFSSEALRERILDSGAKVLITANEGPRGPKFVPTKAIADEAVEGLSLVESILVVRRTGKEVPMLAGRDYWLDAEMAKHRGVCPAEWMDSEDPLFILYTSGSTGKPKGVLHTTGGYLVYAATTFRYVFDIQPEDVYFCAADLGWVTGHSYILYGPLMNGTTTVMFESTPTFPDAGRLWRVVDDLKATILYTAPTALRSLIKEGDAWVKKSSRQSLRLLGSVGEPINPEVWRWYHDVVGEGRCPVVDTWWQTETGGILIAPLPGATPTKPGSATLPFFGVEPVLVDDEGRVIEGNGVSGNLCLARSWPGQARTLYGHHQRFKETYYARFPNLYFTGDGCRRDEDGYYWITGRVDDVLNVSGHRLGTAEVESALVAHEAVAEAAVVGFPHDLKGTGVCAFVTVKPDWQESASEQMVGALKEQVRHVIGPIATPDRVVLVNGLPKTRSGKILRRMLRKIASGEVENLGDASTLADPSVLDELLAKATPPQAKR
B10: aspC A106G/A218G/F210I/I29V/I33V/I68L/I71L/N30D/N64T/S135A/T100S/V136I/V375I (Escherichia coli, UniProt P00509); chain MFENITAAPADPILGLADLFRADERPGKVDLGVGVYKDETGKTPVLTSVKKAEQYLLENETTKTYLGLDGLPEFGRCTQELLFGKGSALINDKRARTAQSPGGTGGLRVAADFLAKNTSVKRVWVSNPSWPNHKAIFNSAGLEVREYAYYDAENHTLDFDALINSLNEAQAGDVVLFHGCCHNPTGIDPTLEQWQTLAQLSVEKGWLPLIDFAYQGFGRGLEEDAEGLRAFAAMHKELIVASSYSKNFGLYNERVGACTLVAADSETVDRAFSQMKAAIRANYSNPPAHGASVVATILSNDALRAIWEQELTDMRQRIQRMRQLFVNTLQEKGANRDFSFIIKQNGMFSFSGLTKEQVLRLREEFGVYAVASGRINVAGMTPDNMAPLCEAIVAVL

Substance = B1 (enzyme); substrate = COc1cc(/C=C/CO)cc(OC)c1O; temperature = 27 °C; Km = 143 µM
Substance = B2 (enzyme S252E); substrate = NC(=O)C1=CN([C@@H]2O[C@H](COP(=O)(O)OP(=O)(O)OC[C@H]3O[C@@H](n4cnc5c(N)ncnc54)[C@H](O)[C@@H]3O)[C@@H](O)[C@H]2O)C=CC1; pH = pH 7; temperature = 30 °C; setting = apparent; Km = 21000 µM
Substance = B3 (enzyme Y136L/Y168I); substrate = C=C1CC[C@@H]2C(C)(C)CCC[C@@]2(C)[C@@H]1CC/C(C)=C/COP(=O)(O)OP(=O)(O)O; Km = 2.95 µM
Substance = UGT1A7 (Homo sapiens, UniProt Q9HAW7); substrate = CC(C)=CCc1cc2c(cc1O)O[C@H](c1ccc(O)cc1)CC2=O; pH = pH 7.4; Km = 22.4 µM
Substance = B4 (ST3GAL1 K315T); substrate = CC(=O)N[C@H]1[C@H]([C@H](O)[C@H](O)CO)O[C@](OP(=O)(O)OC[C@H]2O[C@@H](n3ccc(N)nc3=O)[C@H](O)[C@@H]2O)(C(=O)O)C[C@@H]1O; Km = 52.3 µM
Substance = HNL C81L/E79H/G176S/H103V/K236M/N104T/T11G/V106F (Hevea brasiliensis); substrate = CC(=O)Oc1ccc([N+](=O)[O-])cc1; pH = pH 7.2; temperature = 22 °C; Km = 80 µM
Substance = enzyme (Mycobacteroides abscessus, UniProt B1MGE0); substrate = C/C(=C\C=C(/O)C(=O)O)C(=O)CC[C@@H]1C(=O)CC[C@]2(C)C(=O)CC[C@@H]12; pH = pH 7.5; temperature = 25 °C; Km = 8 µM
Substance = CYP2J2 L2A (Homo sapiens); substrate = CCCCC/C=C\C/C=C\C/C=C\C/C=C\CCCC(=O)O; Km = 131 µM
Substance = B5 (enzyme W53Y); substrate = OC[C@H]1O[C@H](O[C@H]2O[C@H](CO)[C@@H](O)[C@H](O)[C@H]2O)[C@H](O)[C@@H](O)[C@@H]1O; pH = pH 3.7; temperature = 30 °C; Km = 84200 µM
Substance = B6 (efeB); substrate = CN(C)c1ccc(C(=C2C=CC(=[N+](C)C)C=C2)c2ccccc2)cc1; pH = pH 4; temperature = 25 °C; setting = apparent; Km = 500 µM
Substance = gdh E198G/N192S/N97F (Bacillus subtilis); substrate = NC(=O)c1ccc[n+]([C@@H]2O[C@H](COP(=O)(O)OP(=O)(O)OC[C@H]3O[C@@H](n4cnc5c(N)ncnc54)[C@H](O)[C@@H]3O)[C@@H](O)[C@H]2O)c1; pH = pH 7; temperature = 50 °C; Km = 250 µM
Substance = B7 (CDA); substrate = Nc1ccn([C@H]2C[C@H](O)[C@@H](CO)O2)c(=O)n1; pH = pH 7.4; temperature = 37 °C; Km = 31.6 µM
Substance = B8 (UGT1A1); substrate = O=c1c(O)c(-c2ccc(O)c(O)c2)oc2cc(O)ccc12; pH = pH 7.4; temperature = 37 °C; setting = not purified; Km = 3.4 µM
Substance = B9 (enzyme); substrate = CC(=O)O; pH = pH 8; temperature = 32 °C; setting = apparent; Km = 9450 µM
Substance = B10; substrate = N[C@@H](Cc1ccccc1)C(=O)O; pH = pH 7.5; temperature = 25 °C; together with = PLP 20 µM; Km = 12000 µM

Some of these lines once more:
Substance = B5 (enzyme W53Y); substrate = OC[C@H]1O[C@H](O[C@H]2O[C@H](CO)[C@@H](O)[C@H](O)[C@H]2O)[C@H](O)[C@@H](O)[C@@H]1O; pH = pH 3.7; temperature = 30 °C; Km = 84200 µM
